Results gathered from unrelated publications.
A part holds a random share of what one study measured.
UniProt Q2M2I8, sequence (whole entry, looked up): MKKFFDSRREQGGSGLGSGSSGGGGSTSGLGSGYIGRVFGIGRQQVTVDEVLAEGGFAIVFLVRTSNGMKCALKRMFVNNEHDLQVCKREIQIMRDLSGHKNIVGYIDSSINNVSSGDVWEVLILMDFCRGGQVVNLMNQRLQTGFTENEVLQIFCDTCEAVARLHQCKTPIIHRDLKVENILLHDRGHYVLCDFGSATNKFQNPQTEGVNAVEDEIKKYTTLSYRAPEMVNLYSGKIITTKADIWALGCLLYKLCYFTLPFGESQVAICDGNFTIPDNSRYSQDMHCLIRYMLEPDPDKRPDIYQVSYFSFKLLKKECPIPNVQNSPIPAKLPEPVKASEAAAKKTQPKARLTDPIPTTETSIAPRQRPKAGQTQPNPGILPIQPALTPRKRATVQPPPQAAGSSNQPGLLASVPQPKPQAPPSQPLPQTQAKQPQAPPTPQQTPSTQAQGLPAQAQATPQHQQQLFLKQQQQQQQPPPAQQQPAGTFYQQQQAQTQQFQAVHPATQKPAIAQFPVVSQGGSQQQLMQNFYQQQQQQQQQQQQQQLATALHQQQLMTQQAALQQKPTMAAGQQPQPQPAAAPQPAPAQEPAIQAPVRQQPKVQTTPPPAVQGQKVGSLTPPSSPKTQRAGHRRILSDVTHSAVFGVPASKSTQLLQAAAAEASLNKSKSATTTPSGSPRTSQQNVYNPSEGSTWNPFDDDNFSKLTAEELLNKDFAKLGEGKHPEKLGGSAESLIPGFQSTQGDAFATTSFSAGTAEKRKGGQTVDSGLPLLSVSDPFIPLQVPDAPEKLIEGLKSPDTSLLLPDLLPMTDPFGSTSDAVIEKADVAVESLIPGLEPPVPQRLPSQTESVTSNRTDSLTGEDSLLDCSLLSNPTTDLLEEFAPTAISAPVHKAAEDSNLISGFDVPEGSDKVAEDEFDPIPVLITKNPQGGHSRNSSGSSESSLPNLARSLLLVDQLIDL
UniProt P54762, sequence (whole entry, looked up): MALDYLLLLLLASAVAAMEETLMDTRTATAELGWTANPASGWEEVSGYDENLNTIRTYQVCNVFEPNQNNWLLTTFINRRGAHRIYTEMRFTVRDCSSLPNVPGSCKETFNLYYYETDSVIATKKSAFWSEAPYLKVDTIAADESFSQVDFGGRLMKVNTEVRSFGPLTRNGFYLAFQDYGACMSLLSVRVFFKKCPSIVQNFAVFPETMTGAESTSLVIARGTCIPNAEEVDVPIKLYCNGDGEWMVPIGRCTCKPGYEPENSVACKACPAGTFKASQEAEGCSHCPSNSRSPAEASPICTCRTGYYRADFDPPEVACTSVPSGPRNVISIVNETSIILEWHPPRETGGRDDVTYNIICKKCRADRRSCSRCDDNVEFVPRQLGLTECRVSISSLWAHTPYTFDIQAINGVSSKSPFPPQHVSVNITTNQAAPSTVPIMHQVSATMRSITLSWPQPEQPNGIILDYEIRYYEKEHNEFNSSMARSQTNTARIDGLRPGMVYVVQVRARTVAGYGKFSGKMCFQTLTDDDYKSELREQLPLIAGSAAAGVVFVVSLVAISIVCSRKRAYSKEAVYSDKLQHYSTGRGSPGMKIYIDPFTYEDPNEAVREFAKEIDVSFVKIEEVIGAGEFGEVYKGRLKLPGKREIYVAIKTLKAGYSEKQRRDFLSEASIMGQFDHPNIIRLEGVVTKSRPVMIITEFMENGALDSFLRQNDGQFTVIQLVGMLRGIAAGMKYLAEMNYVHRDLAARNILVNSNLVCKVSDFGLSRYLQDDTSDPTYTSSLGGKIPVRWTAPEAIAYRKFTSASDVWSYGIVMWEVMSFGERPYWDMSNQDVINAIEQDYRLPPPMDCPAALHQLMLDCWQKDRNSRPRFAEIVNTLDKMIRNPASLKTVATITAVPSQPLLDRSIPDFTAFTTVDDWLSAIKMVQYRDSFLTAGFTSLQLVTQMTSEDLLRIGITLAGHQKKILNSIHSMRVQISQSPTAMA
UniProt P36897, sequence (whole entry, looked up): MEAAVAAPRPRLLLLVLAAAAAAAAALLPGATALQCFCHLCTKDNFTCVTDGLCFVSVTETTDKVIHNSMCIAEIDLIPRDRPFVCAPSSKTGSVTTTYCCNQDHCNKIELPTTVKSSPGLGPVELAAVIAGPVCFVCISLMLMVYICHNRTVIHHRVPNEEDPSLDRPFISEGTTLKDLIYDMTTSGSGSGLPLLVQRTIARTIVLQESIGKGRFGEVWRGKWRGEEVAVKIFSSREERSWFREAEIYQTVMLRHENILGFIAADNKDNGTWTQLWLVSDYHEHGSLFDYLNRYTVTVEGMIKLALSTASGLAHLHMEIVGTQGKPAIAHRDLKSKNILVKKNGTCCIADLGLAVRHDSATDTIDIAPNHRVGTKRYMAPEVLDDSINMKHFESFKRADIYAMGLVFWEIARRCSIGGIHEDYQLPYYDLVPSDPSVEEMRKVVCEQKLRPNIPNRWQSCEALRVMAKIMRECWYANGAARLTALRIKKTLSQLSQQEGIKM
UniProt P78368, sequence (whole entry, looked up): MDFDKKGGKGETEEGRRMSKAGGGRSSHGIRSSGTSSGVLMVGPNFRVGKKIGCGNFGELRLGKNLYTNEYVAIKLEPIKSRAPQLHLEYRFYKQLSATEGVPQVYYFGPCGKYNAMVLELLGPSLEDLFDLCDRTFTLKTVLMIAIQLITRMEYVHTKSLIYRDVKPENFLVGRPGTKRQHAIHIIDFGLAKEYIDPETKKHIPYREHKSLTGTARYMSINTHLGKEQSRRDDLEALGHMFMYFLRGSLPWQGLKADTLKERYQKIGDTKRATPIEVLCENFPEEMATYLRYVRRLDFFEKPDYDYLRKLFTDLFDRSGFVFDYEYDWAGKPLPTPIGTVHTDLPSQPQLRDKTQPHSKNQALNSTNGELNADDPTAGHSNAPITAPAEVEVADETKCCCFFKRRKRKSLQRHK
UniProt Q9UK32, sequence (whole entry, looked up): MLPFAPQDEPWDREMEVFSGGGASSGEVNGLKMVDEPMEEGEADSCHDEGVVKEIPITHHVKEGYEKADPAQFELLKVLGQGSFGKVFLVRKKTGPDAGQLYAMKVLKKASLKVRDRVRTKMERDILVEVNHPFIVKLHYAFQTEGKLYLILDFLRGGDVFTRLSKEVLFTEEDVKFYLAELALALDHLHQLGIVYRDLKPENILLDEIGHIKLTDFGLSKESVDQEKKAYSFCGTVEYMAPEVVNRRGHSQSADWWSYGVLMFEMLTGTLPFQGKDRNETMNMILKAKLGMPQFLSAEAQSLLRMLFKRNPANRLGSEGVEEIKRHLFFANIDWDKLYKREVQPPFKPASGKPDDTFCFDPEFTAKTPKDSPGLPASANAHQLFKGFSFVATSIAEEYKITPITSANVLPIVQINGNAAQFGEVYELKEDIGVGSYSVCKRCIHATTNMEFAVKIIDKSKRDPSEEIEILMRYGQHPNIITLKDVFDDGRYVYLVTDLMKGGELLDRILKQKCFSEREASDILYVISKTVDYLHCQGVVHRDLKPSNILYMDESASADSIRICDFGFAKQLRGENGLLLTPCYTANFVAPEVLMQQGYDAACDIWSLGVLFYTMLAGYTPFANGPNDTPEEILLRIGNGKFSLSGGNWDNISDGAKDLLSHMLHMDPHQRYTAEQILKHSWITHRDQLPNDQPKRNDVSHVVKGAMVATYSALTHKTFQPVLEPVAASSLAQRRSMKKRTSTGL

Block 1 — host: human; matrix: microsomes or S9; concentration: 2 µM; time: 0.5 h
`Cc1ccc(N(C(C)C(=O)N2CCN(C)CC2)S(C)(=O)=O)cc1C` (stereo not drawn) gave a remaining compound of 81.2%.
`CCCN1C(=O)C2(C(C(=O)c3ccc4c(c3)CC(C)O4)=C(O)C(=O)N2CC2CCCO2)c2ccccc21` (stereo not drawn) has a remaining compound of 81.2%.
For `O=C1CCCc2nc(Nc3ccc(F)cc3)ncc21`, the remaining compound was 7.22%.

Block 2 — concentration: 0.1 µM
SMILES: CS(=O)(=O)N1CCCC(NC(=O)[C@H](CCC2CCCCC2)NC(=O)c2ccc(CNc3ncnc4c3nnn4-c3ccccc3)cc2)C1 (stereo partly drawn)
Ribosomal protein S6 kinase alpha-6, N-terminal kinase domain (RPS6KA6, Homo sapiens, UniProt Q9UK32); cell-free assay, competition with immobilised ligand — remaining binding: 100%.
AAK1 (Homo sapiens, UniProt Q2M2I8); binding — remaining binding: 90%.
The remaining binding was 100% (EPHB1 (Homo sapiens, UniProt P54762); cell-free assay, competition with immobilised ligand).
For CSNK1G2 (Homo sapiens, UniProt P78368); cell-free assay, competition with immobilised ligand: remaining binding read 82%.
It gave 100% for remaining binding (TGFBR1 (Homo sapiens, UniProt P36897); cell-free assay, competition with immobilised ligand).

Block 3 — effect on: enzyme activity; mode: inhibitor; concentration: 0.5 µM; baseline: control
Target: Discoidin domain-containing receptor 2 (DDR2, Homo sapiens, UniProt Q16832)
UniProt Q16832, sequence (whole entry, looked up): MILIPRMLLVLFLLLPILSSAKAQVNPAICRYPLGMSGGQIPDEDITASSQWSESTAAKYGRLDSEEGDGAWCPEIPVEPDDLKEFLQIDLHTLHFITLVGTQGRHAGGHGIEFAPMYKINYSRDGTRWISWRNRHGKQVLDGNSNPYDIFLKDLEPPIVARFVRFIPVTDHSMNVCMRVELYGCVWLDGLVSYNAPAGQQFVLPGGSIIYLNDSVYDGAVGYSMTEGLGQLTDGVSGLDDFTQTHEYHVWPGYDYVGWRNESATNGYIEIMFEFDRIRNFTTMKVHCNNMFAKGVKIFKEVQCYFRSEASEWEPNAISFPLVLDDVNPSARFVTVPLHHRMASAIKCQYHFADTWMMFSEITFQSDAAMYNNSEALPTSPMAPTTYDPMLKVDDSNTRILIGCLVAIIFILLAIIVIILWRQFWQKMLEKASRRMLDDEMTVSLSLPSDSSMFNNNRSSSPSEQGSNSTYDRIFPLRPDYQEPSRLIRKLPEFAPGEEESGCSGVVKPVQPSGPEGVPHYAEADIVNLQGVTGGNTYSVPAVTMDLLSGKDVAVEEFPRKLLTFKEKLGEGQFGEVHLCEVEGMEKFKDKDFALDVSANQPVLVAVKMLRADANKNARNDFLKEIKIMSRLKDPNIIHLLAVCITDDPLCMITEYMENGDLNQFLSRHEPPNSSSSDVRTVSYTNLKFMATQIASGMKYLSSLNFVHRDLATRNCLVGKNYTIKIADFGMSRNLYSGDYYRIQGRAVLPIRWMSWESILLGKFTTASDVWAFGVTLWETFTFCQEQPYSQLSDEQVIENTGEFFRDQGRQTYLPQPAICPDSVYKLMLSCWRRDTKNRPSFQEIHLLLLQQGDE
The remaining activity of `CN(C)c1ccc(C=C2C(=O)Nc3ccccc32)cc1` is reported as 103%.
`COc1cc2ncnc(Nc3ccc(Oc4ccccc4)cc3)c2cc1OC` has a remaining activity of 97.9%.
For `O=C(Nc1cccc(Nc2cc(Nc3cccc(C(F)(F)F)c3)ncn2)c1)C1CC1`, the remaining activity was 106%.
`Oc1ccc(-c2nc(-c3ccncc3)c(-c3ccc(F)cc3)[nH]2)cc1` has a remaining activity of 86.3%.
`Nc1ncnc2n[nH]c(Nc3ccc(F)cc3)c12` has a remaining activity of 94.2%.
`Nc1ccc2ncnc(NCCc3ccc(Oc4ccccc4)cc3)c2c1` has a remaining activity of 96.8%.
With `Cc1ccc(NC(=O)c2ccc(CN3CCN(C)CC3)cc2)cc1Nc1nc(-c2cccnc2)cs1` the remaining activity was 36.4%.
`CCOC(=O)c1c(C)[nH]c(/C=C2\C(=O)Nc3ccccc32)c1C` has a remaining activity of 98%.
The remaining activity of `CC(C)[C@H](CO)Nc1nc(Nc2cc(N)cc(Cl)c2)c2ncn(C(C)C)c2n1` is reported as 128%.
The remaining activity of `N#CC(C#N)=C(N)/C(C#N)=C/c1ccc(O)cc1` is reported as 97.6%.
`COc1cc2ncnc(Nc3ccc(F)c(Cl)c3)c2cc1OCCCN1CCOCC1` has a remaining activity of 117%.
The remaining activity of `O=C1NC(=O)C(c2cn(CCCn3ccnc3)c3ccccc23)=C1Nc1ccccc1` is reported as 95.6%.
The remaining activity of `Cc1nc(-c2ccccc2)c(-c2ccncc2)o1` is reported as 97.4%.
With `O=C1NC(=O)C(c2cn(CCCO)c3ncccc23)=C1c1cnccn1` the remaining activity was 94.6%.

Block 4 — method: aptamer microarray, sandwich; form: DNA with 2'F-ANA; matrix: in vitro; concentration: 200 nM; added: Cy3 exosite-II aptamer, 400 nM; direction: higher = stronger binding; oligonucleotide: GGTTGGTGTGGTTGG
Target: Prothrombin, mature alpha-thrombin (F2, Homo sapiens, UniProt P00734)
Notes: whole 15-mer aptamer, many near background
Under “mean fluorescence intensity”, `2'F-ANA at 3 6 9 11 14` is recorded as 460 a.u.
Under “mean fluorescence intensity”, `2'F-ANA at 2 4 7 9 10 11 12 14` is recorded as 66.8 a.u.
Under “mean fluorescence intensity”, `2'F-ANA at 1 9 11 12 13 14` is recorded as 60.1 a.u.
`2'F-ANA at 1 3 7 8 9 11 12 14 15`: “mean fluorescence intensity” 118 a.u.
For `2'F-ANA at 1 3 5 8 10 12`, “mean fluorescence intensity” read 49.2 a.u.
`2'F-ANA at 1 2 3 4 5 7 8 11 14 15` — result for “mean fluorescence intensity”: 48 a.u.
`2'F-ANA at 3 4 5 6 8 10 13 14`: “mean fluorescence intensity” 84.7 a.u.
`2'F-ANA at 2 4 7 8 11 12 14` — result for “mean fluorescence intensity”: 219 a.u.

Repeated from above (block 3):
For `O=C(Nc1cccc(Nc2cc(Nc3cccc(C(F)(F)F)c3)ncn2)c1)C1CC1`, the remaining activity was 106%.
With `Cc1ccc(NC(=O)c2ccc(CN3CCN(C)CC3)cc2)cc1Nc1nc(-c2cccnc2)cs1` the remaining activity was 36.4%.
The remaining activity of `CN(C)c1ccc(C=C2C(=O)Nc3ccccc32)cc1` is reported as 103%.
